Published values of several laboratories.
Parts stem from different laboratories: compare values within a part only. Changes are numbered by the printed parent chain.

Series 1 — target: UBE2D1 UBC core domain (UniProt P51668); technique: yeast two-hybrid; matrix: yeast; setting: mostly zero background; reference: not given; reading: higher = stronger interaction
B1: HLTF RING domain (UniProt Q14527); chain LILSSGSDEECAICLDSLTVPVITHCAHVFCKPCICQVIQNEQPHAKCPLCRNDIHEDNLLE
B2: TRIM41 RING domain (UniProt Q8WV44); chain PVQTLQEEAVCAICLDYFTDPVSIGCGHNFCRVCVTQLWGGEDEEDRDELDREEEEEDGEEE
B3: RNF6 RING domain (UniProt Q9Y252); chain NSIDSELGKICSVCISDYVTGNKLRQLPCMHEFHIHCIDRWLSENCTCPICRQPVLGSNIAN
B4: RNF182 RING domain (UniProt Q8N6D2); chain AESQASDELECKICYNRYNLKQRKPKVLECCHRVCAKCLYKIIDFGDSPQGVIVCPFCRFETCLPDDEV
B5: ZMYND11 RING domain (UniProt Q15326); chain DEIDWETENHDWYCFECHLPGEVLICDLCFRVYHSKCLSDEFRLRDSSSPWQCPVCRSIKKKNTNKQEM
B6: VPS8 RING domain (UniProt Q8N3P4); chain TRGLNPKQDYCSICLQQYKRRQEMADEIIVFSCGHLYHSFCLQNKECTVEFEGQTRWTCYKCSSSNKVGKLSE
B7: MARCHF1 RING domain (UniProt Q8TCQ1); chain TAPRSQSRLSVCPSTQDICRICHCEGDEESPLITPCRCTGTLRFVHQSCLHQWIKSSDTRCCELCKYDFIMETKLKPLRKWE
B8: RUFY1 RING domain (UniProt Q96T51); chain QALKGHAWLKDDEATHCRQCEKEFSISRRKHHCRNCGHIFCNTCSSNELALPSYPKPVRVCDSCHTLLLQRCSSTAS
B9: CNOT4 RING domain (UniProt O95628); chain MSRSPDAKEDPVECPLCMEPLEIDDINFFPCTCGYQICRFCWHRIRTDENGLCPACRKPYPED
Residues (chain): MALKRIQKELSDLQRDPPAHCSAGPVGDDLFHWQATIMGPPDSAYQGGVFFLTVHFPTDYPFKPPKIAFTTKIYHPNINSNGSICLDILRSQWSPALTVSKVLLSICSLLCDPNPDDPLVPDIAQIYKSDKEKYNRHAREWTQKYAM
Molecule | lacZ reporter activity
FAEQPSVKLCCQLCCSVFKDPVITTCGHTFCRRCALKSEKCPVDNVKLTVVVNNI (TRAF7 RING domain (UniProt Q6Q0C0)) | 0
B1 (HLTF RING domain) | 0
B2 (TRIM41 RING domain) | 0
B3 (RNF6 RING domain) | 0
B4 (RNF182 RING domain) | 0
DDVLTKDAGECVICLEELLQGDTIARLPCLCIYHKSCIDSWFEVNRSCPEHPAD (ZNRF1 RING domain (UniProt Q8ND25)) | 12200
B5 (ZMYND11 RING domain) | 0
B6 (VPS8 RING domain) | 0
ASEEEFQFLRCQQCQAEAKCPKLLPCLHTLCSGCLEASGMQCPICQAPWPLGADTP (PML RING domain (UniProt P29590)) | 0
B7 (MARCHF1 RING domain) | 0
B8 (RUFY1 RING domain) | 0
B9 (CNOT4 RING domain) | 13500

Series 2 — technique: RNA Bind-n-Seq; form: RNA; matrix: in vitro; tested at: 100 nM; reference: input RNA pool; reading: higher = stronger binding
Target: RING finger protein unkempt homolog, zinc fingers 1-6, SBP tag (UNK, Homo sapiens, UniProt Q9C0B0, residues 30-357)
UniProt Q9C0B0, sequence (30-357, looked up): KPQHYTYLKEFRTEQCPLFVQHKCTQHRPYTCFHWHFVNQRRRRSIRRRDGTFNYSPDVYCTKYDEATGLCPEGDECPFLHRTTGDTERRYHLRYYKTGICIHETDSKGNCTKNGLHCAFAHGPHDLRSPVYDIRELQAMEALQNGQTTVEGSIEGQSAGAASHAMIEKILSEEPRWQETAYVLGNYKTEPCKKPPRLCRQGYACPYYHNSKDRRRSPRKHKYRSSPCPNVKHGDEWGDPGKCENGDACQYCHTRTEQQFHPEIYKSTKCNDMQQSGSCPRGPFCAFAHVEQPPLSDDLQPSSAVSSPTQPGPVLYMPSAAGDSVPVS
Setting: RNA with constant flanks, vertebrate orthologous sites, ends assumed
Constant ends, left off below: GGGAGUUCUACAGUCCGACGAUC … CAACAGAGGAUUGAGCAUCA
Oligonucleotide | bound/input enrichment [ratio]
CUUAAUUAGAGGGUAGUAUAUGUUUCAUAAAGAAGAGCCUUUAUAAUUUUGUUUGUCAUAUAGCAUUUUGGAAUUUGUAUAAUGAGAAUGUUUAGAAGCCAUAUCAAUGGCUUUUUUAAA | 0.677
UCUAUACGAUUUUAAAGACACUUCCUUACAAGGCACUUUGGCUCUUCAUAGAUCCCAUCGUAUUUACAGAUCUAUUUUUUUAAAAUAGCAGUAUGAACUCAAAGGGGACUUGGUUGGCGU | 0.686
GGGAUAUAUUGAAUAGUAUUAAACAUUUUCGUCUUCCUUUACCUUUUAUCCCUUAAUAUCUAGUCUACUUUUUUAAACUUCAGACUUCAAUGCUCUUUGAAUUGAUAAUUCCAAUUUUCA | 0.941
CCCAUGGCUGCUUUGUAUUACCUCAGUGAGUUACAGCCCCCCUUGGCAUUUAGUUGGUACUAGAGCCAGUCAUCCUUAACAAAUCUUUUCACAUUUUAUUUCUUUCACACAUAGUCAUCU | 4.31
GAAGACAGUGGUUGUACAGUAUCAUUUCAUUUAAAAACUAUAAACAUUUUGUUUUGAAGCUAGGCAUUUAAACUGGAAUAGCUAUUAUACCCCUGAGAAUGGGGCAGUUGUGCCCUUGAC | 0.777
CCGAAAGGCCAAAUUCCCUCCUCCCUUCUUCUGCUUCUACCAACUGGAAGCACAGAAAACUAGAAUUUCAUUUAUUUUGUUUUUAAAAAAAUCUAUGUUGAUUUCUUGUAACAUCCAAUA | 0.4
UUUUUAAAGUUUUUUUUUAAUUUAAGUUUUCCUUUUGGGGGUAAAGUUUGCUCUACCAAAUAGUGAUUGUAACAAUUUGAUCUGUUUUGGAUGUUGCUAUAGUGACAUGCAGUUAUAUAU | 0.989
AGUGGCAUUUGCUCCACUAAAAAGAGUAAAAUUAAGUCCCCCAAAUAUAAGACUCCUAAGUAGCUAUUAGAAAAAUUAAAAUGUUUAACUUUUGUAAAUCACCUGAUACCACCACACACU | 3.55
GUGGUCUGCAGAGCAGUCGGCUGCUGGAGCAAGUCUGCACAGUGCCCACCAUCCACCAUCCUACUUCCAGGAAUUUAAUAUUUUUGAAAGUUUUACAAUGCUGUAUAUUCAAAGAUUGUU | 0.262
GGCUACAGGGAGAAGAGCUCACAAACUCAAACUAUUCAAGAGUUUCUAAUAGUUAAAAGCUAGGAAAGAUUAGGACAACUUUACAAAUGAGCAGUUAAAAAUAAAACAGAAGAGAGAGGA | 1.13
GGGUCUACUGACCACUCACCAUUAAUGUCUGGUAUCUGUAAAACACUUUUUUUUUGUUCUUAGUCUUUUUCUUGUAUAAUUGAUGUUCUUUAAAAUUGUUAAUGUAUAACAGGGCUUAUG | 1.2

Series 3 — target: CCND2, cyclin fold, Cln2 fusion (human); technique: yeast growth competition, sequencing; matrix: yeast; setting: weak parent motif; reference: not given; reading: higher = stronger binding
Parent: ORC1 docking peptide (human); PRARKRLELGNLG; partner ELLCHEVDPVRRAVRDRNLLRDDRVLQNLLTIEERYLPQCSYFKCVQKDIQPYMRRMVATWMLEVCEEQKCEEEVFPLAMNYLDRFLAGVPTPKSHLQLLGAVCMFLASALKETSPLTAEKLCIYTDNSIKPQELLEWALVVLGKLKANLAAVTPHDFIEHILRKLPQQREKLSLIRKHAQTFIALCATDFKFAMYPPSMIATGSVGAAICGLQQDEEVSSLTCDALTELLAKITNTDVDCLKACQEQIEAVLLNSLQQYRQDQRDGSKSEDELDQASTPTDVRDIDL
Change | normalised enrichment score
K5F | 0.2
G10A | 0.331
K5Y | -0.0448
L12C | 0.185
L7W | 0.248
R2N | 0.365
L9W | 0.298
R2W | 0.408
L12D | -0.167
E8F | -0.135
N11E | -0.351
K5D | 0.238
R6P | 0.216
N11F | 0.243
N11R | 0.201

Series 4 — technique: RNA Bind-n-Seq; form: RNA; matrix: in vitro; tested at: 200 nM; setting: whole 134-nt RNA, ends assumed; together with: 150 mM KCl; reference: input library; reading: higher = stronger binding
Target: Fragile X messenger ribonucleoprotein 1, C-terminal low-complexity region (Fmr1, Mus musculus, UniProt P35922)
Constant ends, left off below: GGGAGUUCUACAGUCCGACGAUC … UGGAAUUCUCGGGUGUCAAGG
Oligonucleotide | log2 enrichment
UGGGAGGUGGAUUUUGUUUAUUUUUUUAGCUCAUUUCCAGGGGUGGGAAUUUUUUUUUAAUAUGUGUCAUGAAUAAAGUUGUUUUGGAAA | 0.365
CUCAAGUCCUGUGCUACACAUCGUAUGUACCGAAUCGGAGGAAAAAAAGGAGGAAAGUAUUAUGUUACGCCGUUCGGAUCUGCACUUCCA | -0.121
UCAAGUCCUGUGCUACACAUCGUAUGUACCGAAUCGGGGUGGGGUGGGGUGGGGAAAGUAUUAUGUUACGCCGUUCGGAUCUGCACUUCC | 1.23
GUCCUGUGCUACACAUCGUAUGUACCGAAUCGGGGAAAGGGGAAAGGGGAAAAAGGGGAAAGUAUUAUGUUACGCCGUUCGGAUCUGCAC | 0.0944
GCAGGAAGUAAAAACAAAUGGAAAUGCUUAAAAUAGUGGCAGGGGUGGGGGUUGCUAAGGAAAGGGUGGGAUGGGAGUGGGUAAAGAGUU | 0.482
CCUGUGCUACACAUCGUAUGUACCGAAUCGGGAAAAAAAGGGUUUUUGGGUUUUUUUGGGAAAGUAUUAUGUUACGCCGUUCGGAUCUGC | -0.687
UCAAGUCCUGUGCUACACAUCGUAUGUACCGAAUCGGGUUGGGGUUGGGUUGGGGAAAGUAUUAUGUUACGCCGUUCGGAUCUGCACUUC | 1.25
CCUGUGCUACACAUCGUAUGUACCGAAUCGGGAAAAAAAGGAAAAAAAGGGAAAAAAAGGGAAAGUAUUAUGUUACGCCGUUCGGAUCUG | -1.01
UGGCCCUGGUGGCAUGCGGGGAGGAAGAGGUGGCCUCAUGGAUCGUGGUGGUCCCGGUGGAAUGUUCAGAGGUGGCCGUGGUGGAGCCAG | 0.144
UUCUGCACCUCUGCUACCUAAAGAAGACCCAAUCUUCACAUAUUUAUCUAAACGGUUAGGAAGGAGUAUAGAUGACAUAGGUCACCUCAU | -0.049
GUCCUGUGCUACACAUCGUAUGUACCGAAUCGGGGCCCCCGGCCCCCGGGGCCCCCGGAAAGUAUUAUGUUACGCCGUUCGGAUCUGCAC | -1.03
CCUGUGCUACACAUCGUAUGUACCGAAUCGGGGUUUUUUGGGUUUUUUGGGUUUUUUGGGAAAGUAUUAUGUUACGCCGUUCGGAUCUGC | -0.148
ACCAUGCAGGUGGGCAUCUUUGGGAAGUGGGGCAAGGGGGGGAUAGGGAGGGGGGUAACACAUUGGGAACAGGUGGUCCCAGGUCGUUUC | 0.6
CACAGACAACACGCACCCACACAGACACAGAGGGAAGGGGUUGGGAUGGGGACAGAGUGCACAGCAGGGCGGGGUAGGACCCCAGCCCCU | 1.13

Some of these lines once more (series 4):
Oligonucleotide | log2 enrichment
UGGCCCUGGUGGCAUGCGGGGAGGAAGAGGUGGCCUCAUGGAUCGUGGUGGUCCCGGUGGAAUGUUCAGAGGUGGCCGUGGUGGAGCCAG | 0.144
UUCUGCACCUCUGCUACCUAAAGAAGACCCAAUCUUCACAUAUUUAUCUAAACGGUUAGGAAGGAGUAUAGAUGACAUAGGUCACCUCAU | -0.049
GUCCUGUGCUACACAUCGUAUGUACCGAAUCGGGGCCCCCGGCCCCCGGGGCCCCCGGAAAGUAUUAUGUUACGCCGUUCGGAUCUGCAC | -1.03
CCUGUGCUACACAUCGUAUGUACCGAAUCGGGGUUUUUUGGGUUUUUUGGGUUUUUUGGGAAAGUAUUAUGUUACGCCGUUCGGAUCUGC | -0.148
